Results of several laboratories.
Every numbered part comes from another study and shows a few of its results, in no order. Substitutions count along the parent as printed.

Sample 1 — method: universal PBM; molecule type: double-stranded DNA, one strand shown; sample: in vitro; concentration: 600 nM; direction: higher = stronger binding
Target: Sal-like protein 4, full length isoform A (SALL4, Homo sapiens, UniProt Q9UJQ4, residues 1-1053)
Sequence of UniProt Q9UJQ4 (whole entry, looked up): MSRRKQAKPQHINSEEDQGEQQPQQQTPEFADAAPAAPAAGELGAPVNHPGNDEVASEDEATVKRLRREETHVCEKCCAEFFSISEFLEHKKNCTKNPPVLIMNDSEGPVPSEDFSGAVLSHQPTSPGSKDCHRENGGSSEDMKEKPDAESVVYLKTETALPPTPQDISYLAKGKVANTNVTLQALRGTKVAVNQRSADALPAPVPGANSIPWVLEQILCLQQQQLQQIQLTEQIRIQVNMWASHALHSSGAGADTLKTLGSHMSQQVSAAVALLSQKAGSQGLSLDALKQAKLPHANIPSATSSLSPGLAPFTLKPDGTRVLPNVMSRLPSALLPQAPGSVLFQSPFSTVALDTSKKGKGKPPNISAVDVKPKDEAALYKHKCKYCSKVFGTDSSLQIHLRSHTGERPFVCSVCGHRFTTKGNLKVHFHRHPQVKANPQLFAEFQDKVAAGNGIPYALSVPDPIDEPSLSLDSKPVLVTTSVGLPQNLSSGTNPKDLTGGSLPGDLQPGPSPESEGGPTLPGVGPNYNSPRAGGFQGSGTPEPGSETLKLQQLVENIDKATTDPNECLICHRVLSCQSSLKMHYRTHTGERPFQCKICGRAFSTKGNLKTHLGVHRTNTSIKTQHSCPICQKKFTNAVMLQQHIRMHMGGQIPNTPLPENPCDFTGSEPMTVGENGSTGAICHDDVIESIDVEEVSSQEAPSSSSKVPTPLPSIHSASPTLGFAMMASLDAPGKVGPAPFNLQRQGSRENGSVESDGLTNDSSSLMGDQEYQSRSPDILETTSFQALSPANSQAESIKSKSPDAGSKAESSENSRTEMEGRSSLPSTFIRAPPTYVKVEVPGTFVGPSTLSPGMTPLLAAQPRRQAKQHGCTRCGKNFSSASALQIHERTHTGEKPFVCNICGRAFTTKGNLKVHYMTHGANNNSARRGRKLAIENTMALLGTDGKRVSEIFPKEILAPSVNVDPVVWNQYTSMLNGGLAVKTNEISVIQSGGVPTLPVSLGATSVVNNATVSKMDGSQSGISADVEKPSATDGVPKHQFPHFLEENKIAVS
Notes: 8-mer, flanks averaged, mean of replicates
| Oligonucleotide | E-score |
| --- | --- |
| CATGGTGA | -0.0303 |
| GAGAGCCA | -0.0783 |
| CCCCAGAC | -0.216 |
| ACGACGTC | -0.159 |
| CGACCTCC | -0.245 |
| ACGTAGGC | -0.139 |
| AAACGGAC | -0.0888 |
| AATTACAC | 0.188 |
| AGTCAGAA | 0.0199 |
| AAGAAAAA | 0.317 |
| CAAAGTTA | 0.176 |
| ATGGGCAC | -0.093 |
| AGATCGTC | -0.137 |
| CACTTCGC | -0.0598 |
| ATAAGAAC | 0.304 |
| ACCGTCTA | -0.103 |
| AGCACCCG | -0.322 |
| GAATTTAC | 0.244 |
| TATCGGAA | 0.256 |
| AACGATCC | -0.131 |
| ACTGTAAG | 0.144 |
| AGTGGTAG | -0.0964 |
| ACCAGATG | -0.0547 |
| GGGTCAAC | -0.173 |
| AGCTGCGC | -0.217 |

Sample 2 — method: aptamer microarray, sandwich; molecule type: DNA with 2'F-ANA; sample: in vitro; concentration: 200 nM; with: Cy3 exosite-II aptamer, 400 nM; direction: higher = stronger binding; oligonucleotide: GGTTGGTGTGGTTGG
Target: Prothrombin, mature alpha-thrombin (F2, Homo sapiens, UniProt P00734)
Notes: whole 15-mer aptamer, many near background
| Modification | mean fluorescence intensity |
| --- | --- |
| 2'F-ANA at 3 8 12 | 1460 a.u. |
| 2'F-ANA at 1 3 5 7 9 11 13 15 | 53.3 a.u. |
| 2'F-ANA at 1 3 4 5 7 10 11 13 15 | 49.5 a.u. |
| 2'F-ANA at 2 8 9 10 11 13 | 120 a.u. |
| 2'F-ANA at 2 3 4 5 6 7 8 11 12 13 15 | 102 a.u. |
| 2'F-ANA at 1 6 7 8 9 12 15 | 392 a.u. |
| 2'F-ANA at 1 3 5 7 11 14 | 44.4 a.u. |
| 2'F-ANA at 1 3 4 5 10 12 14 | 46.1 a.u. |
| 2'F-ANA at 1 3 4 6 8 9 10 15 | 59.4 a.u. |
| 2'F-ANA at 2 3 4 5 6 9 12 14 | 68.6 a.u. |
| 2'F-ANA at 5 7 9 13 15 | 52.4 a.u. |
| 2'F-ANA at 1 2 3 4 5 6 7 10 12 15 | 53.5 a.u. |
| 2'F-ANA at 1 2 4 6 9 | 112 a.u. |
| 2'F-ANA at 3 5 6 7 8 10 12 13 14 15 | 71.1 a.u. |
| 2'F-ANA at 1 2 3 5 6 9 10 11 12 13 | 52.2 a.u. |
| 2'F-ANA at 1 2 4 5 7 8 10 11 12 13 14 | 44.7 a.u. |
| 2'F-ANA at 2 3 4 6 7 12 15 | 800 a.u. |
| 2'F-ANA at 2 5 6 8 9 10 12 13 | 51.1 a.u. |
| 2'F-ANA at 1 2 7 | 168 a.u. |
| 2'F-ANA at 1 2 3 4 7 9 12 14 15 | 68.8 a.u. |
| 2'F-ANA at 1 3 4 11 15 | 182 a.u. |
| 2'F-ANA at 1 3 4 5 6 8 11 13 14 15 | 88.2 a.u. |
| 2'F-ANA at 2 3 10 12 14 15 | 317 a.u. |
| 2'F-ANA at 1 4 6 9 11 12 13 15 | 134 a.u. |

Sample 3 — target: CCNB2, cyclin fold, Cln2 fusion (human); method: yeast growth competition, sequencing; sample: yeast; notes: weak parent motif; relative to: not given; direction: higher = stronger binding
Starting sequence: BORA docking peptide (human); SSLRRKLFLDGNG; partner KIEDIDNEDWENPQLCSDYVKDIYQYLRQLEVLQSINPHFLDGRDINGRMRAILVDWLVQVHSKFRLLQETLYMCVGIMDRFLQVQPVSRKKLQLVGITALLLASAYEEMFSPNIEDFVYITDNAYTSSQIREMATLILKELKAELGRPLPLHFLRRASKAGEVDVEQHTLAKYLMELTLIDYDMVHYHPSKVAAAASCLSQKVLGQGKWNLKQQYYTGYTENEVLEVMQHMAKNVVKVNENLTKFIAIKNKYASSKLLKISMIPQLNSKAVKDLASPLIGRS
| Change | normalised enrichment score |
| --- | --- |
| SSLRKKLFLDGNG [R5K] | 0.966 |
| SSLRRKLFLDGAG [N12A] | 1.22 |
| SSLRAKLFLDGNG [R5A] | 0.208 |
| ASLRRKLFLDGNG [S1A] | 0.739 |
| SSLRRKLFFDGNG [L9F] | 0.841 |
| SALRRKLFLDGNG [S2A] | 0.765 |
| SSLRRALFLDGNG [K6A] | 0.431 |
| SSLRRKAFLDGNG [L7A] | -0.0743 |

Sample 4 — method: RNA Bind-n-Seq; molecule type: RNA; sample: in vitro; concentration: 1 µM; notes: whole 134-nt RNA, ends assumed; with: 150 mM KCl; relative to: input library; direction: higher = stronger binding
Target: Ras GTPase-activating protein-binding protein 1, C-terminal RGG region (G3BP1, Homo sapiens, UniProt Q13283)
Sequence of UniProt Q13283 (whole entry, looked up): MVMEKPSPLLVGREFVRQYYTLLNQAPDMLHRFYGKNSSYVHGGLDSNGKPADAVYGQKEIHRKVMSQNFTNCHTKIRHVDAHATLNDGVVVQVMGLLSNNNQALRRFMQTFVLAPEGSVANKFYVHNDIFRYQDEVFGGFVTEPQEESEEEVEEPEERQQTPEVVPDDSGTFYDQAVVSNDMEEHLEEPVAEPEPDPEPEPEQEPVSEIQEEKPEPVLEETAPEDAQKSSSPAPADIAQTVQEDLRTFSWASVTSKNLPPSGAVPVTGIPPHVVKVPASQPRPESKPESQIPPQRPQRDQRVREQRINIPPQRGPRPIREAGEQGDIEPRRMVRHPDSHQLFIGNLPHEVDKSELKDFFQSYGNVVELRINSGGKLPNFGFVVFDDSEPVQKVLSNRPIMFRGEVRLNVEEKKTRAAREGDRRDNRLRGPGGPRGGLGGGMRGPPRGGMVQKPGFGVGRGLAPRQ
| Oligonucleotide | log2 enrichment |
| --- | --- |
| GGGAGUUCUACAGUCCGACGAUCACCAUGCAGGUGGGCAUCUUUGGGAAGUGGGGCAAGGGGGGGAUAGGGAGGGGGGUAACACUUUGGGAACAGGUGGUCUCAGGUCGUUUCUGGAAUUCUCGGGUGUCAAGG | 1.63 |
| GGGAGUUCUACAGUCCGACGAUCUAACUUUAGAGGAGGAUCUGAUGGAUAUGGCAGUGGACGUGGAUUUGGGGAUGGCUAUAAUGGGUAUGGCGGAGGACCUGGAGGUGGCAAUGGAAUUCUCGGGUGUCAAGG | -1.03 |
| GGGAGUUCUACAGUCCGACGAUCUGGGAGGUGGACUUUGUUUAUUUUUUUAGCUCAUUUCCAGGGGUGGGAAUUUUUUUUUAAUAUGUGUCAUGAAUAAAGUUGUUUUUGAAAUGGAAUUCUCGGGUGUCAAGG | 3.57 |
| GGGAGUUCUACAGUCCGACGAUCAAGUCCUGUGCUACACAUCGUAUGUACCGAAUCGGGUGGGUUUUUUUGGGAAAGGGAAAGUAUUAUGUUACGCCGUUCGGAUCUGCACUUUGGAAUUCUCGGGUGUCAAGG | -0.0703 |
| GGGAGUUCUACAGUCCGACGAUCCUGUGCUACACAUCGUAUGUACCGAAUCGGGGAAAAAGGGGUUUUUGGGGAAAAAAAGGGGAAAGUAUUAUGUUACGCCGUUCGGAUCUGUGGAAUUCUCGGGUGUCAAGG | 0.194 |
| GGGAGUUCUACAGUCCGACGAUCUCCUGUGCUACACAUCGUAUGUACCGAAUCGGAAAAAAAGGAAAAAAAGGAAAAAAAGGGAAAGUAUUAUGUUACGCCGUUCGGAUCUGCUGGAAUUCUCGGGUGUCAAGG | -1.1 |
| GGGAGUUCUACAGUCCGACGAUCUCCUCAAGUCCUGUGCUACACAUCGUAUGUACCGAAUCGGUGGAAAGGAGGAAAGUAUUAUGUUACGCCGUUCGGAUCUGCACUUCCAGCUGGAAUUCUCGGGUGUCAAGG | -1.12 |
| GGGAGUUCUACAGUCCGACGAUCCAAGUCCUGUGCUACACAUCGUAUGUACCGAAUCGGAAAGGGAAAGGGGAAAGGGGAAAGUAUUAUGUUACGCCGUUCGGAUCUGCACUUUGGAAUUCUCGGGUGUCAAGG | -0.943 |
| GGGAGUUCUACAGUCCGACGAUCACCAUGCAGGUGGGCAUCUUUGGGAAGUGGGGCAAGGGGGGGAUAGGGAGGGGGGUAACACUUUGGGAACAGGUGGUCCAAAGUCGUUUCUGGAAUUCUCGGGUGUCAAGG | -0.97 |
| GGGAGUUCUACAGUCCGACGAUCCCUGUGCUACACAUCGUAUGUACCGAAUCGGGUUUUUUGGGUUUUUUGGGGUUUUUUGGGAAAGUAUUAUGUUACGCCGUUCGGAUCUGCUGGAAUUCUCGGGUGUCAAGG | -1.24 |
| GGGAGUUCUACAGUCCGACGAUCCAAGUCCUGUGCUACACAUCGUAUGUACCGAAUCGGUUUUGGGUUUUGGUUUUGGAAAGUAUUAUGUUACGCCGUUCGGAUCUGCACUUCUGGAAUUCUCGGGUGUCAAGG | -1.34 |
| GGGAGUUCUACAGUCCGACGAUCCACAGACAACACGCACCCACACACACACAGAGGGAAGGGGUUGGGAUGGGGACAGGGUGCACAGCAGGGCGGGGUAGGACCCCAGCCCCUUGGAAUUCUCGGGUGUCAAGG | -0.332 |
| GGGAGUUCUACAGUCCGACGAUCUGUCCAGCUCUGAAGGGCAAAGUGCAGAAGAUCCUAAUCUGGAAGUGGGGUCAGCCACCAUCUCCCACACCAGUGCCUCGGCCUCCAGAUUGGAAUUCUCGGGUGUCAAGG | -0.47 |
| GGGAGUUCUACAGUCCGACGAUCGUCCUGUGCUACACAUCGUAUGUACCGAAUCGGGAAAAAAAGGGAAAAAGGGAAAGGGAAAGUAUUAUGUUACGCCGUUCGGAUCUGCACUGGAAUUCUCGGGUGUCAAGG | -0.169 |

Sample 5 — method: protein-binding microarray; molecule type: double-stranded DNA, one strand shown; sample: in vitro; concentration: 2200 nM top; notes: 60-bp whole probe; with: salmon DNA 0.4 mg/ml; relative to: random background probes; direction: higher = stronger binding; shared flanks, not repeated: GCCTAGCAC … GTCTTGATTCGCTTGACGCTGCTG
Target: Interferon regulatory factor 7, full length, phosphomimetic (IRF7, Homo sapiens, UniProt Q92985, residues 1-503, S471D/S472D/S475D/S476D/S477D/S483D/S484D/S487D)
Sequence of UniProt Q92985 (whole entry, unmodified, looked up): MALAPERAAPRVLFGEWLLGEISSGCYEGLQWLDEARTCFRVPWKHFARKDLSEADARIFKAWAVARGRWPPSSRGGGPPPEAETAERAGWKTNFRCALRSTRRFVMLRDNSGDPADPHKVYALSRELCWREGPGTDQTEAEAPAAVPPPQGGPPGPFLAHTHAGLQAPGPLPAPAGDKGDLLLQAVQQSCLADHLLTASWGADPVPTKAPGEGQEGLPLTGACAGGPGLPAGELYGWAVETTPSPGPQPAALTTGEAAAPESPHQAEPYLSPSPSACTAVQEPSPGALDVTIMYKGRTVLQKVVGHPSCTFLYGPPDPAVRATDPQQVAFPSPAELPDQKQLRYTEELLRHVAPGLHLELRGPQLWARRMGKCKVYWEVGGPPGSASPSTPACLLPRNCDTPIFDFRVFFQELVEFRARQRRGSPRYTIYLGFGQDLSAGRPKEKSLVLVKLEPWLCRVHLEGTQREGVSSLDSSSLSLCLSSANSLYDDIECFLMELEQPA
| Oligonucleotide | fitted relative affinity [z-score] |
| --- | --- |
| GACGGGCTCCTACTGCTGACGTGCTAG | -0.342 |
| GACGTTATCGGTCTCGGGACGTGCTAG | 0.529 |
| GACGGTATCGGGTTGCGGGACGTGCTA | 0.787 |
| GACGGACTGGACGTTCGGGACGTGCTA | -0.544 |
| TCAGGTCTGGATGTGCCACTGTGCTAG | 0.0389 |
| TTGGGTTTCCTTATCCTTTAGTGCTAG | 2.01 |
| TTAGGACTGGTGTATCGGTTAGTGCTA | -0.201 |
| TTAGGCATCCTTATCCTTTAGTGCTAG | 0.11 |
| CCTGGCTCCATGGAATTTTTGTGCTAG | -0.266 |
| TGCACTCTCTACATGTGTTTGTGCTAG | 1.27 |
| TTAGAACTGAGTCTCGATTGGTGCTAG | 0.103 |
| GAACTTCTGCATTACAGCTAGTGCTAG | 0.672 |
| TTAGATATCGAGTATCGATTAGTGCTA | -0.0645 |
| TTAGGTCTGGGGTTTCGGTTAGTGCTA | 2.69 |
| TTAGGATTCCTTCTCCTTTAGTGCTAG | 1.18 |
| TCAATTCTCTGCTTGGGACTGTGCTAG | 0.981 |
| GACGATTGCAGTATCGAGACGTGCTAG | 0.267 |
| TCACATATTTATCTGCAACTGTGCTAG | 1.07 |
| TCACTTTGCTCATTTTTCACTGTGCTA | 2.84 |
| ATGCTACAATAAGTGTTAGTGTGCTAG | -0.015 |
| GGGTGTGTGAGTGTGTGTGCGTGCTAG | -0.0667 |
| GACGGTTGCGGGACTGGGGACGTGCTA | -0.588 |
| GACGCACTGAGACTGGAGACGTGCTAG | 0.089 |
| GACGGTATCTTACTGCTGACGTGCTAG | 0.388 |
| TTAGGTTTCGGGTCCGGTTAGTGCTAG | 6.56 |

Single results of other studies
| Molecule | target | assay | test system | conditions | scale | quantity | value |
| --- | --- | --- | --- | --- | --- | --- | --- |
| PhoQ, residues 284 288 289 292 302 303 AMDMFI | PhoP, residues 12 14 15 18 19 VQALL (Escherichia coli, UniProt P23836) | Sort-seq, item: YFP reporter | E. coli | PhoQ-PhoP variant library, with: 10 µM Mg2+ | relative to: high Mg2+ state, higher = stronger signaling | fold induction | 0.712 |

A few entries again (sample 5):
| Oligonucleotide | fitted relative affinity [z-score] |
| --- | --- |
| TTGGGTTTCCTTATCCTTTAGTGCTAG | 2.01 |
| TCACATATTTATCTGCAACTGTGCTAG | 1.07 |
| TTAGATATCGAGTATCGATTAGTGCTA | -0.0645 |
| TTAGGTCTGGGGTTTCGGTTAGTGCTA | 2.69 |
| ATGCTACAATAAGTGTTAGTGTGCTAG | -0.015 |
| GACGGTATCGGGTTGCGGGACGTGCTA | 0.787 |
| GACGTTATCGGTCTCGGGACGTGCTAG | 0.529 |
| TTAGGCATCCTTATCCTTTAGTGCTAG | 0.11 |
| TTAGGATTCCTTCTCCTTTAGTGCTAG | 1.18 |
| GACGCACTGAGACTGGAGACGTGCTAG | 0.089 |
| TTAGGACTGGTGTATCGGTTAGTGCTA | -0.201 |
| CCTGGCTCCATGGAATTTTTGTGCTAG | -0.266 |
| TTAGAACTGAGTCTCGATTGGTGCTAG | 0.103 |
